Results collected from several papers.
A part holds a random share of what one study measured.

Block 1
Organism: Saccharomyces cerevisiae
Observed: growth after mating arrest
Technique: competitive growth deep sequencing
Form: peptide
Notes: strain without Cln2 fusion
Direction: direction not given
Endpoint: enrichment score
PHKTFRKLRLFDTPHT: -0.209
EPRNLLSLFEDTLDPT: 0.0286
RTEALEQGGLPKKLIF: 0.475
YLYLLLTQSLWCRV: -0.392
RQVRRDLFAF: -0.498
AKRSLGFLPQPVPL: -0.862
VKRLNFRSEEME: -0.845
KRCATPVIIDEILPSK: -0.19
GPVKLEFDVSDGAT: 0.147
GTPKRCLDLSNLSSGE: 0.226

Block 2
Target: Hepatocyte nuclear factor 3-alpha (Foxa1, Mus musculus, UniProt P35582, residues 1-468, full length assumed)
Technique: EMSA with sequencing
Form: double-stranded DNA, one strand shown
Sample: in vitro
Concentration: 10 and 20 nM
Notes: whole designed probe, mean of two concentrations, ends assumed
Baseline: negative control set to 0
Direction: higher = stronger binding
Endpoint: normalised bound fraction
Shared flanks, not repeated: GTGAGCGGTGCCCATTGATGGGGAAC … TTTCACTGGGATCGTGGGGAC
Residues (chain): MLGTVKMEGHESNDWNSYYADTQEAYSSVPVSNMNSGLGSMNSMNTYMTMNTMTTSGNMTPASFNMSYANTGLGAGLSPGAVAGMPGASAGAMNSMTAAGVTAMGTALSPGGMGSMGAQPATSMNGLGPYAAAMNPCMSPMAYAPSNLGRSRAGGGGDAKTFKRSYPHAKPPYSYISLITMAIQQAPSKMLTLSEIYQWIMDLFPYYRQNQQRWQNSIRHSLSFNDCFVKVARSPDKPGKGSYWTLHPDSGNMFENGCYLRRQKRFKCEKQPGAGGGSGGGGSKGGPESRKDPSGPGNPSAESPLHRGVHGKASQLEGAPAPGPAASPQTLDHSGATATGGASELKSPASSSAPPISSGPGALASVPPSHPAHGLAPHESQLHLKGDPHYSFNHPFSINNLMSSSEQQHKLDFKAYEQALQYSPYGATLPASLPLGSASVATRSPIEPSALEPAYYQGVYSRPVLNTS
TCGGCCAGCCTGGCTTCTGCGCCCCGCCAGGAGGTCGCGGAGCGGAGCGCGGCCAGGAAGTGAGCTGAGAGTGACAGCTCCCCCCACGCTGTTTGTTTATTCTCATGACTCATTCTCCACACACTGGCTCTTCTTTCTTTCGGGAGGAGGGGAGAAAGGAGCGGGAGGGCGGGCGGGCAGGGGAGAGGCAGGC: 0.285 ratio
GAGAGCCCTGGAAGCTCAGAAGAGGCAAGAGGGGCCTACTTCTCCCTTGTTTGGGCTTTGTTTGCTAAATACCAATATTAGATTAGGCAACTCTGCAATCTAAACCAAGGCCTGGCCAGCTGCCCAGGGTGTTTAAAGTCCAAGACATGAAGGCAGGACGTGTGCCCGTGGACTTGCACACGCAAGCAGGCCG: 0.23 ratio
CTAAATAGATACTTCTGGCTTAATCATGTAGAATCCTTTTGACTATACATAACAGAAAACCAAGCTAACCATTAGCATTAACTAAAAGGATGCTTGTTTACTTAATATTACTTCCAAAGTGGTCCCTGTGATGGTTTGGCCTTGAAATTGAATCATCAAGGACCGACTCTCTTTTCAAAATCTTTGGTTGGTA: 0.423 ratio
CTGTGCAGAAAAGAGATAGCACAGTAAGACTGAGACTCTTGATACCCACAGAAAGGCTGACCTTTGCCTACAGTCTGCAAACGTCACTGGTAAGTAATCTGCTCCCTACATTGATACAAAACTCTCTAAGTGAAAACAGTGGCTCACTGTGCCTAACGGGTTTATGCTAAAGACCTGTTTTCCTTTCAGGAGT: -0.0371 ratio
TGTGAGCCACTGCACCCAGCCAAGTGGTTTGTTTATATTCAAGAGTGAGGCACTAAAATGCTAATTGGAAGCTTTGTGTACATGGGTTGGGCTTATTGACTTATATGACTCCTCACAGTGAAACAGGTCAATGGTCAATGGTCTCATTGTCTGAAGTGTTATCTGAGTTCATTGTCTCATGACCAAGAAAATT: 0.321 ratio
TCTTTCACTCAAGTGGTATATCCCACAGCCCTAAAGAAGCAAGGGAAATAAGAATTAGAACTAGACATCCCAGGAGACAAAGAATTCAACAAAGCAAACATTAACCAACACTTCCTGCTCCCTTCACTATTTACAGAAAATCTCTCTGGCTCAGGCCGGGCAGTGAGTTCATTTATTTCAACAAAATCAAAGA: 0.286 ratio
GATTCCAGCCAGCAGAATAGGAATTTCAGAATACGATAAGGAGATGTTAAGGAAGGTCAGGCAGTAAAAAGAGGTTTCCAGACTCATGTGGTTTGTTGACTTAGCAAGTCAGGGAGAAGTCAATTGTTTGCTCTCCTGTTTTACAGTCTTTAGGTGTGGGCCAGCCCAGGGCCATTGATAGTCATTTTAGCCA: 0.452 ratio
GTAAAGCCAGTTACTTTTGTTATGTTTATGAATTCCTAGGCCTCTTGACAAACACTGAGGTTCTCAAACATTGGCAAACACAAGTCACATTAGGTAAACATACAAATTCTTGGCCTTAGTTCCATATATTTTATTCTGAACAAATAGCCCTTAAGTCAAAATTGAGAAACAATGATTAGTAATAAGTTTTTAC: 0.409 ratio

Block 3
Target: Sal-like protein 4, full length isoform B (SALL4, Homo sapiens, UniProt Q9UJQ4-2, residues 1-616)
Technique: universal PBM
Form: double-stranded DNA, one strand shown
Sample: in vitro
Concentration: not given
Notes: 8-mer, flanks averaged, mean of replicates
Direction: higher = stronger binding
Endpoint: E-score
GAACATGA: 0.0795
AGCTACCA: -0.0839
ATAGATCG: 0.0556
AGCCTGTC: -0.255
GGATGGAC: -0.0935
TATGGAGA: 0.226
GGGCAACA: -0.0955
GCACCATA: 0.0895
AAATGGCA: 0.129
CAGGGGGA: -0.223
GGCTCGAA: -0.185
CATCGAAG: 0.113
CTAGACAC: -0.0131
CCTTAGCC: -0.181
CTCTGCTC: -0.158
ACACGAAA: 0.064
TCCCCGGA: -0.319

Mixed results
PhoQ, residues 284 288 289 292 302 303 TASMAF  fold induction (PhoP, residues 12 14 15 18 19 LHHSG (Escherichia coli, UniProt P23836); Sort-seq, item: YFP reporter; E. coli; PhoQ-PhoP variant library, added: 10 µM Mg2+; baseline: high Mg2+ state, higher = stronger signaling): 24.6

A few entries again (block 1):
RQVRRDLFAF: -0.498
KRCATPVIIDEILPSK: -0.19
VKRLNFRSEEME: -0.845
EPRNLLSLFEDTLDPT: 0.0286
